Results collected from several papers.
Lines come from different studies, so protocols differ.
Cell line: OVCAR-3

`COC1CC(=O)c2c(O)cccc2C12Oc1cccc3cccc(c13)O2` (centres unmarked) gave an IC50 of over 25 µM (cell growth or viability, resazurin; 72 h).
For `Cc1ccc([N+](=O)[O-])cc1S(=O)(=O)N(C)/N=C/c1cnc2ccc(Br)cn12`, the IC50 was 0.071 µM (cell viability, MTS).
`O=C1C=CC2(Oc3cccc4cccc(c34)O2)c2ccccc21` has an IC50 of 3.3 µM (cell growth or viability, resazurin; 72 h).
`CN(C)CCN1CCN(c2ccc3nc(-c4ccc5nc(-c6ccc(C(F)(F)F)cc6)[nH]c5c4)[nH]c3c2)CC1` gave a growth percent of 89.7% (SRB; 10 µM, 48 h).
For `O=C(Nc1nnc2c1c(-c1ccc(Cl)cc1)nc1sc(=Cc3ccco3)c(=O)n12)c1ccccc1` (mixture of isomers), the cell growth was 43.9% (SRB; 10 µM, NCI60 single-dose screen; baseline: untreated).
`CCN(C(=O)c1cc(F)ccc1Oc1nncnc1N1CCC2(C1)CN([C@H](CCCN(C)CCOC)C(C)C)C2)C(C)C` has a GI50 of over 10 µM (cell growth or viability; 7 days).
`C1=[N+]2CCCC[N+]3=Cc4ccc5[n]4[Au-]23[n]2c1ccc2-c1nc2ccccc2nc1-5.F[P-](F)(F)(F)(F)F` has an IC50 of 4.3 µM (NCI60 five-dose screen).
For `CNS(=O)(=O)Nc1nccc(Cc2c(C)c3ccc(Oc4ncccc4F)cc3oc2=O)c1F`, the IC50 was over 1 µM (cell viability; 7 days).

Some of these lines once more:
`CCN(C(=O)c1cc(F)ccc1Oc1nncnc1N1CCC2(C1)CN([C@H](CCCN(C)CCOC)C(C)C)C2)C(C)C` has a GI50 of over 10 µM (cell growth or viability; 7 days).
